Measured values of several laboratories.
Each line is one published result; not all experiments were run side by side.
Cell line: RPMI-8226

| Compound | test | conditions | endpoint | result |
| --- | --- | --- | --- | --- |
| CN1CCN(C(=O)N(CCCCCCC(=O)NO)c2ccc(-c3ccc4cnn(C)c4c3)cc2)CC1 | cell growth or viability, ATP luminescence | 72 h | IC50 | 53.3 nM |
| C=CC(=O)N1CCCC(n2c(=O)c3ncccc3n(Cc3ccc(Oc4ccccc4)cc3)c2=O)C1 (stereo not drawn) | cell growth or viability, MTT | 72 h | IC50 | 10000 nM |
| COc1ccc2c(c1)/C(=N\Nc1nnc3n1N=C(c1ccccc1)CS3)C(=O)N2 | cell growth or viability, SRB | 10 µM | inhibition | 61% |
| CC(=O)OC[C@H]1O[C@@H](Sc2sc(C(=O)c3ccc(C)cc3)c(N)c2-c2nc3ccccc3s2)[C@H](OC(C)=O)[C@@H](OC(C)=O)[C@@H]1OC(C)=O | SRB | 10 µM, 48 h | growth | 46.5% |
| O=C(NO)c1ccc(Cn2sc3ccccc3c2=O)cc1 | cell growth or viability, ATP luminescence | 72 h | IC50 | 3800 nM |
| CC(=C(c1ccc(O)cc1)c1ccc(Cl)cc1)c1ccc(Cl)cc1 | cell growth or viability | – | GI50 | 580 nM |
| CC(=O)OC[C@H]1O[C@@H](Sc2sc(C(=O)c3ccc(Br)cc3)c(N)c2-c2nc3ccccc3s2)[C@H](OC(C)=O)[C@@H](OC(C)=O)[C@@H]1OC(C)=O | SRB | 10 µM, 48 h | growth | 43% |
| CC(Cc1ccc(Cl)cc1)=C(c1ccc(Cl)cc1)c1ccc(OCCN(C)C)cc1 | cell growth or viability | – | GI50 | 1070 nM |
| CC/C=C\C/C=C\C/C=C\C/C=C\C/C=C\C/C=C\CCC(=O)Nc1ccn(C2OC(CO)C(O)C2(F)F)c(=O)n1 (stereo not drawn) | cell growth or viability, SRB | – | GI50 | 53.8 nM |

For quick reference, copied from above:
| Compound | test | conditions | endpoint | result |
| --- | --- | --- | --- | --- |
| C=CC(=O)N1CCCC(n2c(=O)c3ncccc3n(Cc3ccc(Oc4ccccc4)cc3)c2=O)C1 (stereo not drawn) | cell growth or viability, MTT | 72 h | IC50 | 10000 nM |
